Assay results of several laboratories.
Protocols differ between the studies behind these lines. Several values in a cell are separate wells, animals, samples, runs or records.
Sequence of UniProt P10635 (whole entry, looked up): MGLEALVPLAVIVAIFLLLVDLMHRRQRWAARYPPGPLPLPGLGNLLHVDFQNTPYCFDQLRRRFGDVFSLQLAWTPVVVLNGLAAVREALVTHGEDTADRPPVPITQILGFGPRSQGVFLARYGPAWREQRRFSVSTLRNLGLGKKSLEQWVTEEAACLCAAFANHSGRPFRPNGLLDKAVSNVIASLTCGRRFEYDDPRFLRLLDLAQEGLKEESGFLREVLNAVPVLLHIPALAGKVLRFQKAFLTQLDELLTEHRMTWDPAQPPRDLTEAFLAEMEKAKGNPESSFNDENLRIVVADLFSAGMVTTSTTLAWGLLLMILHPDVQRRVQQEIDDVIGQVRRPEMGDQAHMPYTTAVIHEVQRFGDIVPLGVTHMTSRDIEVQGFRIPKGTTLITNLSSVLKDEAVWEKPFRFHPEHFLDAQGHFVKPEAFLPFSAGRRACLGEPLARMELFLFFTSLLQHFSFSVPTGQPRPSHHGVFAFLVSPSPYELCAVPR

SMILES | target or system | assay | test system | conditions | how to read | measurement | result
O=C([O-])CN1CCN(CC(=O)[O-])CCN(Cc2cccc(C(=O)[O-])n2)CC1.[18F-].[Sc+3] |  |  | mouse, spleen | intravenous, 1 h |  | tracer uptake | 0.09 %ID/g
Nc1nc(-c2ccccc2)nc2[nH]nc(Nc3ccccc3F)c12 | HeLa Ohio |  |  | 72 h |  | CC50 | > 156 µM
CC(C)OCCOCc1ccc(OCC(O)CN(N=O)C(C)C)cc1 (stereo not shown) | Salmonella typhimurium | Ames test | TA1537 | 500 µg/plate, 30 % rat S9 | relative to: solvent control | revertant fold increase | 1.3 fold
CNC(=O)C1CCCN(C(=O)C2CC3CCC2N3C(=O)[C@@H]2C[C@@H](O)CN2C(=O)NCc2cccc(Cl)c2F)C1 (mixture of isomers) | Cytochrome P450 2D6 (CYP2D6, Homo sapiens, UniProt P10635) | enzyme activity, inhibitor, time-dependent inhibition |  | 16.7 µM, preincubated with NADPH | relative to: negative control | remaining activity | 131%
N#C[C@@H]1CC(F)(F)CN1C(=O)CNC(=O)c1ccnc2c(NC(=O)CCOCCOCCOCCOCCOCCOCCNC(=O)[C@H](CCCCNC(=O)CN3CCN(CC(=O)[O-])CCN(CC(=O)[O-])CCN(CC(=O)[O-])CC3)NC(=O)CCCc3ccc(I)cc3)cccc12.[177Lu+3] | U-87 MG tumour model |  | host not given, stomach | 1 h, tumour-bearing |  | tracer uptake | 0.99 %ID/g
CN(Cc1ccccc1)C(=O)CN1CCN(CC(=O)[O-])CCN(Cc2cccc(C(=O)[O-])n2)CC1.[177Lu+3] |  |  | mouse, kidney | intravenous, 1 h |  | tracer uptake | 10.7 %ID/g
OC(Cc1cc(-c2ccc(C(O)C(F)(F)F)s2)sc1-c1ccc(-c2sc(-c3ccc(C(O)C(F)(F)F)s3)cc2CC(O)C(F)(F)F)s1)C(F)(F)F (stereo not shown) | primary human fetal neurons | LC-MS/MS |  | 4 µM, 60 min, replicate 3 |  | amount in cell extract | 0.02 nmol and 0.01 nmol
CCN(CC)CC#CCNc1ccnc2cc(Cl)ccc12 | Salmonella typhimurium | mini-Ames test | TA98 | 62.5 µg/well, without S9 |  | revertants | 6 revertants/well and 5 revertants/well
COc1ccc(Nc2n[nH]c3nc(-c4ccccc4)nc(N)c23)c(OC)c1 | HeLa Ohio |  |  | 72 h |  | CC50 | > 138 µM
N#C[C@@H]1CC(F)(F)CN1C(=O)CNC(=O)c1ccnc2c(NC(=O)[C@@H](N)CCCCNC(=O)CCOCCOCCOCCOCCOCCOCCNC(=O)CN3CCN(CC(=O)[O-])CCN(CC(=O)[O-])CCN(CC(=O)[O-])CC3)cccc12.[177Lu+3] | U-87 MG tumour model |  | host not given, heart | 48 h, tumour-bearing |  | tracer uptake | 0.03 %ID/g
Nc1nc(-c2ccccc2)nc2[nH]nc(Nc3cccc(F)c3F)c12 | HeLa Ohio |  |  | 72 h |  | CC50 | > 148 µM
O=C(Nc1cnccc1-c1ccc([18F])nc1)c1ccnc(NC(=O)C2CC2)c1 |  |  | mice, transgenic, GSK-3β, early-stage, blood | intravenous, dose not given, 120 min, added: tariquidar 15 mg/kg i.v. pre-dose |  | SUV | 0.155
Nc1nc(-c2ccccc2)nc2[nH]nc(Nc3ccc(F)cc3F)c12 | HeLa Ohio |  |  | 72 h |  | CC50 | > 148 µM
O=C1C2CC3CC1CC(C(=O)N1CCN(c4ccc([N+](=O)[O-])c5ncccc45)CC1)(C3)C2 | Salmonella typhimurium | Ames test | TA97a | 0.02 µg/well, without S9 | relative to: vehicle | revertant fold increase | 0.9
Nc1nc(-c2ccccc2)nc2[nH]nc(Nc3c(F)cccc3F)c12 | HeLa Ohio |  |  | 72 h |  | CC50 | > 148 µM
C=C(NC(=O)c1csc(-c2nc3c(cc2O)-c2nc(cs2)C(=O)NC(C(C)O)C(=O)NC(=C(C)OC)c2nc(cs2)C(=O)NC2c4nc(cs4)C(=O)NC(COC(=O)c4c5c6c(cccc6n4O)COC(=O)C(OC4CC(C)(O)C(N(C)C)C(C)O4)C2OC5)c2nc-3cs2)n1)C(N)=O (stereo not shown) |  |  | ICR mice, Streptococcus pneumoniae ATCC 49169 infected, immunocompromised, blood | intravenous, 8 mg/kg once daily |  | AUC(0-t) | 0.525 µM·h

Excerpt of the above:
SMILES | target or system | assay | test system | conditions | how to read | measurement | result
O=C([O-])CN1CCN(CC(=O)[O-])CCN(Cc2cccc(C(=O)[O-])n2)CC1.[18F-].[Sc+3] |  |  | mouse, spleen | intravenous, 1 h |  | tracer uptake | 0.09 %ID/g
N#C[C@@H]1CC(F)(F)CN1C(=O)CNC(=O)c1ccnc2c(NC(=O)CCOCCOCCOCCOCCOCCOCCNC(=O)[C@H](CCCCNC(=O)CN3CCN(CC(=O)[O-])CCN(CC(=O)[O-])CCN(CC(=O)[O-])CC3)NC(=O)CCCc3ccc(I)cc3)cccc12.[177Lu+3] | U-87 MG tumour model |  | host not given, stomach | 1 h, tumour-bearing |  | tracer uptake | 0.99 %ID/g
